Measured values from different studies.
Compare with care: the assays were run in different laboratories. Numbers after ± are the reported error.

Substance | test | system | setting | IC50
O=C1O[C@H]([C@@H](O)CO)C(O)=C1O | DPPH radical scavenging |  |  | 16.3 ± 0.21 µM
Nc1nc(=O)c2nc(CNc3ccc(C(=O)N[C@@H](CCC(=O)O)C(=O)O)cc3)cnc2[nH]1 | cap-dependent translation | rabbit reticulocyte lysate | 1 h preincubation, added: capped luciferase mRNA | > 500 µM
C/C=C(C)/C=C/C=C/[C@H](OC)[C@@H](C)[C@@H](OC)[C@@H](C)CCc1oc2c(O)c(OC)cc(OC)c2c(=O)c1C | succinate-dependent oxygen uptake, inhibitor | rat liver mitochondria | added: succinate 15 mM | 0.014 µM
O=C1O[C@H]([C@@H](O)CO)C(O)=C1O | nitric oxide scavenging |  |  | 38.9 ± 2.5 µM
O=C(/C=C\c1ccc(O)c(O)c1)Nc1ccc(S(=O)(=O)Nc2ncccn2)cc1 | DPPH radical scavenging | ethanol | 30 min | 45.6 µM
glutathione | DPPH radical scavenging |  | 30 min | < 15 µg/mL
COc1c(Cl)c(C)c(C=O)c(O)c1C/C=C(C)/C=C/[C@@]1(C)[C@H](C)CCC(=O)[C@@H]1C | succinate-dependent oxygen uptake, inhibitor | rat liver mitochondria | added: succinate 15 mM | 0.12 µM
COC(=O)c1c2nc(c(C(F)(F)F)c3ccc([n-]3)c(C(=O)OC)c3nc(c(C(F)(F)F)c4ccc1[n-]4)C=C3)C=C2.[Cl-].[Mn+3] | lipid peroxidation, TBARS | rat brain homogenate | added: iron(II)/ascorbate | 0.2 µM
C=C1[C@@H](O)C[C@H]2C(C)(C)C[C@H](Cl)C[C@]2(C)[C@H]1C[C@H](O)[C@H]1CC(=O)NC1=O | translation, inhibitor, item: firefly luciferase reporter | Krebs-2 cell lysate |  | ~0.5 µM
kanamycin A | phenylalanine incorporation, poly(U)-directed cell-free translation | Mycolicibacterium smegmatis wild-type 70S ribosomes | 60 min, 37 °C | 2.5 µM
Cn1cc(Nc2nccc(-c3ccc4c(c3)CN(C3COC3)CC[C@H]4NC(=O)c3cn(C(C)(C)C)nn3)n2)cn1 | item: CD69 | CD19+ B cells, multiple sclerosis patients, whole blood | added: anti-IgD | 0.151 ± 0.076 µM
O=C1O[C@H]([C@@H](O)CO)C(O)=C1O | DPPH radical scavenging |  | 30 min | 124 ± 6.22 µM
O=C1O[C@H]([C@@H](O)CO)C(O)=C1O | DPPH radical scavenging | ethanol | 30 min | 91 µM
CC(C=CC1(C)C(C)CCC(=O)C1C)=CCc1c(O)c(C=O)c(C)c(Cl)c1OCC(=O)O (centres unmarked) | succinate-dependent oxygen uptake, inhibitor | rat liver mitochondria | added: succinate 15 mM | 4.1 µM
NS(=O)(=O)c1ccc(NC(=O)/C=C\c2ccc(O)c(O)c2)cc1 | DPPH radical scavenging | ethanol | 30 min | 50.3 µM
COC1C(O)[C@@H](COP(=O)(O)OP(=O)([S-])OP(=O)(O)OP(=O)(O)OC[C@H]2O[C@@H](n3cnc4c(=O)[nH]c(N)nc43)C(O)C2O)O[C@H]1n1c[n+](C)c2c(O)nc(N)nc21 (mixture of isomers) | cap-dependent translation, inhibitor | rabbit reticulocyte lysate |  | 2.6 ± 0.3 µM
CCCCCCCCCCCCCCSC[C@H]1O[C@H](O[C@@H]2[C@@H](O)[C@H](O[C@H]3O[C@H](CN)[C@@H](O)C[C@H]3N)[C@@H](N)C[C@H]2N)[C@H](O)[C@@H](N)[C@@H]1O | luciferase reporter translation | Escherichia coli cell lysate |  | > 0.147 µM
Cc1c(CN2CCN(C(=O)[C@H](C)O)CC2)sc2c(N3CCOCC3)nc(-c3cnc(N)nc3)nc12 | item: pAkt | patients with advanced solid tumours, platelet-rich plasma | individual estimates range, PK-PD model | 0.00403 to 0.0261 µg/mL
COc1cccc(NC(=O)c2cc(-c3ccc(CC4C(=O)N(c5cccc(C(=O)O)c5)N=C4C)o3)ccc2Cl)c1 (centres unmarked) | non-homologous end joining, inhibitor | HEK293 cell-free extract | added: linearized plasmid | ~15 µM
neomycin | phenylalanine incorporation, poly(U)-directed cell-free translation | Mycolicibacterium smegmatis wild-type 70S ribosomes | 60 min, 37 °C | 0.4 µM
Nc1ncnc2c1ncn2[C@@H]1O[C@H](C[C@@H](N)CC[C@H](N)C(=O)O)[C@@H](O)[C@H]1O | DNA methyltransferase activity, Flashplate | K562 nuclear extract | added: hemimethylated DNA 1 µM, [3H]SAM | 51 ± 6 µM
NC[C@H]1O[C@H](O[C@H]2[C@H](O)[C@@H](O[C@H]3O[C@H](CO)[C@@H](O)[C@H](N)[C@H]3O)[C@H](N)C[C@@H]2N)[C@H](N)C[C@@H]1O | [14C]-phenylalanine incorporation, inhibitor, (UUU)12-directed cell-free translation | Mycolicibacterium smegmatis wild-type 70S ribosomes | 60 min, 37 °C | 1 µM
COc1cnc(NS(=O)(=O)c2ccc(NC(=O)/C=C\c3ccc(O)c(O)c3)cc2)nc1 | DPPH radical scavenging | ethanol | 30 min | 39.4 µM

For quick reference, copied from above:
Substance | test | system | setting | IC50
Cc1c(CN2CCN(C(=O)[C@H](C)O)CC2)sc2c(N3CCOCC3)nc(-c3cnc(N)nc3)nc12 | item: pAkt | patients with advanced solid tumours, platelet-rich plasma | individual estimates range, PK-PD model | 0.00403 to 0.0261 µg/mL
COc1c(Cl)c(C)c(C=O)c(O)c1C/C=C(C)/C=C/[C@@]1(C)[C@H](C)CCC(=O)[C@@H]1C | succinate-dependent oxygen uptake, inhibitor | rat liver mitochondria | added: succinate 15 mM | 0.12 µM
C/C=C(C)/C=C/C=C/[C@H](OC)[C@@H](C)[C@@H](OC)[C@@H](C)CCc1oc2c(O)c(OC)cc(OC)c2c(=O)c1C | succinate-dependent oxygen uptake, inhibitor | rat liver mitochondria | added: succinate 15 mM | 0.014 µM
kanamycin A | phenylalanine incorporation, poly(U)-directed cell-free translation | Mycolicibacterium smegmatis wild-type 70S ribosomes | 60 min, 37 °C | 2.5 µM
